Published values from different studies.
A part holds a random share of what one study measured. Substitutions count along the parent as printed.

Study 1 — technique: DHFR PCA, deep sequencing; sample: yeast; added: (+)-ABA 2500 µM; reference: wild-type fitted maximum; reading: higher = stronger binding
Target: ABI1, truncated, D143A, DHFR fusion (Arabidopsis thaliana)
Setting: methotrexate growth selection, single substitutions
Parent: PYL1, truncated, DHFR fusion (Arabidopsis thaliana); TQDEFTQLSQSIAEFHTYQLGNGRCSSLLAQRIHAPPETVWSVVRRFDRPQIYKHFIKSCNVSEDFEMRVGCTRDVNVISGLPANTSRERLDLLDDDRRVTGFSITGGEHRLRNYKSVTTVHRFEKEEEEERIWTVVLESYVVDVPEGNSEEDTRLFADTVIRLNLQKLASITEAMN; partner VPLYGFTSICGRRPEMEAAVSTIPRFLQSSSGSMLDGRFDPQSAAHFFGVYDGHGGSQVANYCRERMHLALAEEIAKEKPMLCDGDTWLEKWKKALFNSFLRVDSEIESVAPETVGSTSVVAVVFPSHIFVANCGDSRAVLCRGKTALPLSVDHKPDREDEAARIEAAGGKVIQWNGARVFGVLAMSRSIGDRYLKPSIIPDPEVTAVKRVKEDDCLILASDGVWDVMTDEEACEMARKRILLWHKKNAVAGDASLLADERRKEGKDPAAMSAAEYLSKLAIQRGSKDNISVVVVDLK
Variant	relative binding score [%]
E128F	98
R163I	65.8
C60E	36.4
R24H	98.3
N149D	72.9
T39P	90.4
M68A	91.8
D96M	81.8
V76S	77
H110P	38.8
G71F	74.2
A170M	89.8
R123E	109
F56I	37.3
S171V	95.9
F47L	4.47

Study 2 — target: CCNB1, cyclin fold, Cln2 fusion (human); technique: yeast growth competition, sequencing; sample: yeast; setting: strong parent motif; reference: not given; reading: higher = stronger binding
Parent: E2F1 docking peptide (human); PPVKRRLDLETDH
Variant	normalised enrichment score
D8L	2.12
D12T	0.582
R6N	0.773
R6T	1.23
D12R	0.655
R5G	0.895
R5L	0.359
D8T	1.52
P2K	0.443
R6K	1.07
D12K	1.09
V3S	0.629
E10C	1.17
R5C	0.674
R6C	0.998
P1R	0.577
L7G	0.386
P1Q	1.73
E10G	1.73
K4L	0.811
D12N	0.767
P1D	1.39
P2F	0.926
R6H	0.897
L7W	0.917

Study 3 — technique: RNAcompete; molecule type: RNA; sample: in vitro; tested at: 20 nM; setting: 7-mer, probes averaged, single round; reference: mean of 7-mers; reading: higher = stronger binding
Target: PABPC1L2, full length, GST fusion (mouse, UniProt A0ABA7IW68)
Residues (chain): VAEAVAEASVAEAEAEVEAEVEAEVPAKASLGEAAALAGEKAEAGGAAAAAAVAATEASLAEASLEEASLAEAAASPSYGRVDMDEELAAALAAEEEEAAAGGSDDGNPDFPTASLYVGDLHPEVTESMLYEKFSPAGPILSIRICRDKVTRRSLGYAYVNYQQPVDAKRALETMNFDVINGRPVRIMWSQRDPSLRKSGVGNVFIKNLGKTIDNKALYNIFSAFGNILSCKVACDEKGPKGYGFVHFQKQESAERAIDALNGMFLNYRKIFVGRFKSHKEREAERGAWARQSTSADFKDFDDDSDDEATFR
Oligonucleotide	7-mer Z-score
AUCUAAU	-0.197
AGUCGGU	-0.0989
UCGCGAA	-0.146
CUGGGAA	0.131
AUUUACA	0.18
CCCAUCC	-0.389
CCAGGGU	-0.184
UGCGGGU	0.0569
AAACAUG	3.46
CCGCCUG	-0.461
UAGCACA	-0.146
UUACUAC	-0.313
ACGUGUG	-0.144
ACCAGAA	0.309
AUUCGCU	-0.311
GAUAUAU	-0.0826
ACUUUAC	-0.148
ACACCGG	0.0569
GGUCUUU	-0.267
UCUCCUC	-0.393
GUAAAAU	2.45

Study 4 — target: CEP164, C-terminal peptide (human); technique: DHFR complementation, deep sequencing; sample: yeast; reference: wild type; reading: higher = weaker binding
Setting: single substitutions, model-inferred values
Parent: PDZK1, PDZ domain 2 (human); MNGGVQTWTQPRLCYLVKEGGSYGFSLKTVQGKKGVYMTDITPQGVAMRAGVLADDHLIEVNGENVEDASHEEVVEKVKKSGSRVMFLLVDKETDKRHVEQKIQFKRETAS; partner HNRVKVYRF
Variant	binding free energy change
R97Y	-0.174 kcal/mol
L13C	0.0312 kcal/mol
P11K	0.268 kcal/mol
E108A	-0.184 kcal/mol
T109S	-0.135 kcal/mol
T94M	-0.0305 kcal/mol
K77W	0.528 kcal/mol
E73M	0.111 kcal/mol
K92G	-0.0396 kcal/mol
P11E	0.333 kcal/mol

Study 5 — technique: RNA Bind-n-Seq; molecule type: RNA; sample: in vitro; tested at: 1 µM; setting: whole 134-nt RNA, ends assumed; added: 150 mM KCl; reference: input library; reading: higher = stronger binding
Target: Ras GTPase-activating protein-binding protein 1, C-terminal RGG region (G3BP1, Homo sapiens, UniProt Q13283)
Chain of UniProt Q13283 (whole entry, looked up): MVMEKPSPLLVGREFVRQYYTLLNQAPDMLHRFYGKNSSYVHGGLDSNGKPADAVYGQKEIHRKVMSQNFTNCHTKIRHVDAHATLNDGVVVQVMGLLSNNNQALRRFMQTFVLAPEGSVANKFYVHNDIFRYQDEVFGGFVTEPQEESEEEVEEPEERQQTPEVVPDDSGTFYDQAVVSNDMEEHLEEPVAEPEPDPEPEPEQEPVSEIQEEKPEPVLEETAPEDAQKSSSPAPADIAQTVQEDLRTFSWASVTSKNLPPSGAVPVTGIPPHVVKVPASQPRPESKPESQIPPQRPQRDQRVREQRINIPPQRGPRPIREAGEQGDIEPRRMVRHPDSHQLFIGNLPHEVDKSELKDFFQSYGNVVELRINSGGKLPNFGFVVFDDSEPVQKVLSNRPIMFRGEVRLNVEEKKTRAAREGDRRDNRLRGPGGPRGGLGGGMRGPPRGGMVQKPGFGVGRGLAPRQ
Constant ends, left off below: GGGAGUUCUACAGUCCGACGAUC … UGGAAUUCUCGGGUGUCAAGG
Oligonucleotide	log2 enrichment
GCAGGAAGUAAAAACAAAUGGAAAUGCUUCGGAAAAUGGCAGGGGUGGGGGUUGCUAAGGAAAGGGUGGGAUGGGAGUGGGUAAAGAGUU	1.85
UGGGAGGUGGAUUUUGUUUAUUUUUUUAUCUCAUUUCCAGGGGUGGGAAUUUUUUUUUAAUAUGUGUCAUGAAUAAAGUUGUUUUUGAAA	4
ACCAUGCAGGUGGGCAUCUUUGGGAAGUGGGGCAAGGGGGGGAUAGGGAGGGGGGUAACACUUUGGGAACAGGUGGUCCCAGGUCGUUUC	-1.18
UAACUUUAGAGGAGGAUCUGAUGGAUAUGGCAGUGGACGUGGAUUUGGGGAUGGCUAUAAUGGGUAUGCAGGAGGACCUGGAGGUGGCAA	-1.03
UGGGAGGUGGAUUUUGUUUAUUUUUUUAGCUCAUUUCCAGGGGUGGGAAUUUUUUUUUAAUAUGUGUCAUGAAUAAAGUAGUUUUUGAAA	3.21
UUUUCAAGGGGGCCCCAACUGGGGCCGCCUUGUAGCCUUCUUUGUCUUUGGGGCUGCACUGUGUGCUGAGAGUGUCAACAAGGAGAUGGA	-1.55
CACGGACAACACGCACCCACACAGACACAGAGGGAAGGGGUUGGGAUGGGGACAGGGUGCACAGCAGGGCGGGGUAGGACCCCAGCCCCU	-0.227
UUCCUCAAGUCCUGUGCUACACAUCGUAUGUACCGAAUCGGCGGCGGGCGGAAAGUAUUAUGUUACGCCGUUCGGAUCUGCACUUCCAGC	-0.719
CAAGUCCUGUGCUACACAUCGUAUGUACCGAAUCGGUUUUUUUGGAAAAAGGUGGAAAGUAUUAUGUUACGCCGUUCGGAUCUGCACUUC	-1.73
CCUGUGCUACACAUCGUAUGUACCGAAUCGGGGUUUUUUUGGGGAGGGGAAAAAAAGGGGAAAGUAUUAUGUUACGCCGUUCGGAUCUGC	0.198

Study 6 — target: FOS, bZIP domain (human); technique: DHFR protein complementation; sample: yeast; reference: wild-type JUN-FOS pair; reading: higher = stronger binding
Setting: single substitutions, most at no-binding floor
Parent: JUN, bZIP domain (human); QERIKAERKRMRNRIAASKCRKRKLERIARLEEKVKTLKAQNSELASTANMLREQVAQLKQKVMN; partner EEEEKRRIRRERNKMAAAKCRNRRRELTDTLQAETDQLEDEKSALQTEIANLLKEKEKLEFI
Variant	binding fitness
E32F	-0.415 natural log
L52T	-0.986 natural log
K36I	-0.149 natural log
L45R	-1.14 natural log
K39V	-0.535 natural log
T48Q	0.0636 natural log
K39E	-0.705 natural log
V56G	-1.34 natural log
L52F	-1.18 natural log
R30T	0.147 natural log
E54I	-0.116 natural log
I28P	-0.374 natural log
E54Q	-0.256 natural log
R53N	-0.873 natural log
A40W	-0.341 natural log
A40P	-1.33 natural log
L52P	-1.12 natural log
E44S	-0.204 natural log
E54A	-0.129 natural log
E33R	-0.271 natural log
A57Y	-0.168 natural log
A46Y	-0.232 natural log
E54L	-0.237 natural log
S43F	-0.104 natural log
A57V	-0.183 natural log

Mixed results
Molecule	target	test	test system	setting	scale	endpoint	result
PhoQ, residues 284 288 289 292 302 303 GASLAW	PhoP, residues 12 14 15 18 19 LQHIR (Escherichia coli, UniProt P23836)	Sort-seq, refers to: YFP reporter	E. coli	PhoQ-PhoP variant library, added: 10 µM Mg2+	reference: high Mg2+ state, higher = stronger signaling	fold induction	1.26
